# Published values from different studies.
# Numbered parts are unrelated; each lists some results of a single study.

# Block 1
# Target: Interferon regulatory factor 7, full length, phosphomimetic (IRF7, Homo sapiens, UniProt Q92985, residues 1-503, S101K/S471D/S472D/S475D/S476D/S477D/S483D/S484D/S487D)
# Technique: protein-binding microarray
# Molecule type: double-stranded DNA, one strand shown
# Matrix: in vitro
# Concentration: 250 nM
# Setting: 60-bp whole probe
# With: salmon DNA 0.4 mg/ml
# Baseline: random background probes
# Reading: higher = stronger binding
# All sequences stand within: GCCTAGCAC … GTCTTGATTCGCTTGACGCTGCTG
# Target sequence (chain): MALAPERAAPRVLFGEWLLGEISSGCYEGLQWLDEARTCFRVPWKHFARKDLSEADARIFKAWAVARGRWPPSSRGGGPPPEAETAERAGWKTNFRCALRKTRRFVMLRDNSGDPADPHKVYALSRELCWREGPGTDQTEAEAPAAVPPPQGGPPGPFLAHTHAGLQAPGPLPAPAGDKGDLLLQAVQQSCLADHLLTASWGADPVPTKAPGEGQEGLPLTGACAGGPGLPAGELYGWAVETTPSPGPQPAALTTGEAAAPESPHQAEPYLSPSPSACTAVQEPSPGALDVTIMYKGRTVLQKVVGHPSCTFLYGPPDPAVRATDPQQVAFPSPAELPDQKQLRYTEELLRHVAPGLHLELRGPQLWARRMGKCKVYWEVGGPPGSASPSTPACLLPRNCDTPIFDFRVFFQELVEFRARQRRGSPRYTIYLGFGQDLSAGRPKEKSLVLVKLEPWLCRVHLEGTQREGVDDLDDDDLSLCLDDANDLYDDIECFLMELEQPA
Oligonucleotide,log fluorescence [z-score]
TTTGGTATCCTTCTCCTTTAGTGCTAG,0.359
GGCGATTTCAGTTTCGAGACGTGCTAG,4.2
TTAGGACTGGATTTTCGGTTAGTGCTA,1.12
GTGAGAAATAAGTTTCTTTTGTGCTAG,0.564
GACGATCTCAGCCTCGAGACGTGCTAG,0.0313
TTAGATCTCAGTATCGAGTAGTGCTAG,0.144
GACGGCCTCCTTATCCTGACGTGCTAG,-0.265
GACGGTTTCGGGTTTCGGGACGTGCTA,11.3

# Block 2
# Target: Histone acetyltransferase KAT6A, winged helix 1, GST fusion (KAT6A, Homo sapiens, UniProt Q92794, residues 1-85)
# Technique: protein binding microarray
# Molecule type: double-stranded DNA, one strand shown
# Matrix: in vitro
# Concentration: not given
# Setting: 8-mer, flanks averaged, mean of 2 arrays, mostly near background
# Baseline: not given
# Reading: higher = stronger binding
# Target sequence (chain): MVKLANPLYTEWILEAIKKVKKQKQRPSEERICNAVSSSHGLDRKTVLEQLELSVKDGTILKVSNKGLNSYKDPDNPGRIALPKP
Oligonucleotide,E-score
AACCTTAG,-0.0905
CTTGCAAG,-0.103
CGGCGAGC,0.344
ACGGTTCT,0.0105
CAAGCGTA,0.0428
AAAGTAAT,0.0589
AGGAGCGA,0.0321

# Block 3
# Target: RING finger protein unkempt homolog, zinc fingers 1-6, GST-SBP tag (UNK, Homo sapiens, UniProt Q9C0B0, residues 30-357)
# Sequence of UniProt Q9C0B0 (30-357, looked up): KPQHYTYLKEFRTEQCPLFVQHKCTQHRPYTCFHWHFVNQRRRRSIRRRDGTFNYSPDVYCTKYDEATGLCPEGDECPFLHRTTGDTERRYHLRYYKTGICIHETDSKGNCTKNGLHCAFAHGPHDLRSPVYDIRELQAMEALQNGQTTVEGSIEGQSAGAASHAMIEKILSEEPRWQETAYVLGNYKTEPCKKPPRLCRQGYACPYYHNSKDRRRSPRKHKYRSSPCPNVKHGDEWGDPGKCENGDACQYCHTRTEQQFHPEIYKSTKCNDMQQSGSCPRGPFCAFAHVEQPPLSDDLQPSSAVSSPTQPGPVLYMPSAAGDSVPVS
# Technique: RNA Bind-n-Seq
# Molecule type: RNA
# Matrix: in vitro
# Concentration: not given
# Setting: RNA with constant flanks, human-mouse chimeric sites, ends assumed
# Baseline: input RNA pool
# Reading: higher = stronger binding
Oligonucleotide,bound/input enrichment
GGGAGUUCUACAGUCCGACGAUCAAAGAACCUCUCUCUGAAGAAGAGGAAGAAGACAAUGAUGAUGUUGAACCCAUUUCUGAAUUUCGAUUUGUGCCCAGUGAUAAAUCAGCAUUGGAGGCGAUGUUCACAGCAAUGUGUGAGCAACAGAGGAUUGAGCAUCA,0.25 ratio
GGGAGUUCUACAGUCCGACGAUCCAGCUGCGAGGCCGCGGUUUCCCCCUGGGCCUCCCCAGCAGCAGCCAUGGGCAUCAAAUUUUUAGAAGUUAUCAAACCUUUCUGUGCAGUUCUACCAGAAAUUCAGAAACCGGAAAGGAACAACAGAGGAUUGAGCAUCA,0.801 ratio
GGGAGUUCUACAGUCCGACGAUCACCAUUUCUGAAUACACGGCUUUGUGUGUAGUUCACUUACGGUAUUAAAUUAUUAUUCUGCUUAGCUUAUAAUAAGGAUAAUUGCAUUUAAAGAGGUGAUCACUGAAUACUCUGAAACUUCAACAGAGGAUUGAGCAUCA,0.639 ratio

# Further values, each from its own experiment
Molecule,target,test,system,conditions,how to read,measurement,result
"PhoQ, residues 284 288 289 292 302 303 SLCLSL","PhoP, residues 12 14 15 18 19 QYFSL (Escherichia coli, UniProt P23836)","Sort-seq, refers to: YFP reporter",E. coli,"PhoQ-PhoP variant library, with: 10 µM Mg2+","baseline: high Mg2+ state, higher = stronger signaling",fold induction,6.99
